Experimental data of several laboratories.
Lines come from different studies, so protocols differ. Numbers after ± are the reported error.
U2AF2: U2AF2 148-342 (Homo sapiens, UniProt P26368)
Chain of UniProt P26368 (whole entry, looked up): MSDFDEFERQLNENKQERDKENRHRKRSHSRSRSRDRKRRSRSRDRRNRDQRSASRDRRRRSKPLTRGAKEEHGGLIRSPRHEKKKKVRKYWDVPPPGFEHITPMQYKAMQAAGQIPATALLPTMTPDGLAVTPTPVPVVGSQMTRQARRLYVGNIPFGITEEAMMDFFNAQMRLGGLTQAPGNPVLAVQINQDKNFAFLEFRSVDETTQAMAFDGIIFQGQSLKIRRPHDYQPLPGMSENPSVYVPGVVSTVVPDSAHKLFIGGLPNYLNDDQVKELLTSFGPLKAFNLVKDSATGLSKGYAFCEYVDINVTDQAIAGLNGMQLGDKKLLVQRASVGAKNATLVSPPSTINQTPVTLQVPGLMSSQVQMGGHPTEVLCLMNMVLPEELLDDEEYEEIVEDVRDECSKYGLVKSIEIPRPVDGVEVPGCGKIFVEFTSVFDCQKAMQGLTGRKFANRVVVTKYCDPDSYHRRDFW
B1: TNFSF4 51-183 (Homo sapiens, UniProt P23510); sequence looked up; chain QVSHRYPRIQSIKVQFTEYKKEKGFILTSQKEDEIMKVQNNSVIINCDGFYLISLKGYFSQEVNISLHYQKDEEPLFQLKKVRSVNSLMVASLTYKDKVYLNVTTDNTSLDDFHVNGGELILIHQNPGEFCVL
B2: SMARCD1 SWIFT domain (Homo sapiens); chain IKQKRKLRIFISNTFNPAKSDAEDGEGTVASWELRVEGRLLEDSALSKYDATKQKRKFSSFFKSLVIELDKDLYGPDNHLVEWHRTATTQETDGFQVKRPGDVNVRCTVLLMLDYQPPQFMPPEPIIINHVISVDPNDQKKTACYDIDVEVDDTL
B3: human ERp44; sequence looked up; chain EITSLDTENIDEILNNADVALVNFYADWCRFSQMLHPIFEEASDVIKEEFPNENQVVFARVDCDQHSDIAQRYRISKYPTLKLFRNGMMMKREYRGQRSVKALADYIRQQKSDPIQEIRDLAEITTLDRSKRNIIGYFEQKDSDNYRVFERVANILHDDCAFLSAFGDVSKPERYSGDNIIYKPPGHSAPDMVYLGAMTNFDVTYNWIQDKCVPLVREITFENGEELTEEGLPFLILFHMKEDTESLEIFQNEVARQLISEKGTINFLHADCDKFRHPLLHIQKTPADCPVIAIDSFRHMYVFGDFKDVLIPGKLKQFVFDLHSGKLHREFHHGPDPTDTAPGEQAQDVASSPPESSFQKLAPSEYRYTLLRDRDEL
B4: IL18 37-193 L45C/C74S/C104S/C112S/C163S/E192C (Homo sapiens, UniProt Q14116); chain YFGKLESKCSVIRNLNDQVLFIDQGNRPLFEDMTDSDSRDNAPRTIFIISMYKDSQPRGMAVTISVKSEKISTLSSENKIISFKEMNPPDNIKDTKSDIIFFQRSVPGHDNKMQFESSSYEGYFLASEKERDLFKLILKKEDELGDRSIMFTVQNCD
B5: human SMC1A; sequence looked up; chain MGFLKLIEIENFKSYKGRQIIGPFQRFTAIIGPNGSGKSNLMDAISFVLGEKTSNLRVKTLRDLIHGAPVGKPAANRAFVSMVYSEEGAEDRTFARVIVGGSSEYKINNKVVQLHEYSEELEKLGILIKARNFLVFQGAVESIAMKNPKERTALFEEISRSGELAQEYDKRKKEMVKAEEDTQFNYHRKKNIAAERKEAKQEKEEADRYQRLKDEVVRAQVQLQLFKLYHNEVEIEKLNKELASKNKEIEKDKKRMDKVEDELKEKKKELGKMMREQQQIEKEIKEKDSELNQKRPQYIKAKENTSHKIKKLEAAKKSLQNAQKHYKKRKGDMDELEKEMLSVEKARQEFEERMEEESQSQGRDLTLEENQVKKYHRLKEEASKRAATLAQELEKFNRDQKADQDRLDLEERKKVETEAKIKQKLREIEENQKRIEKLEEYITTSKQSLEEQKKLEGELTEEVEMAKRRIDEINKELNQVMEQLGDARIDRQESSRQQRKAEIMESIKRLYPGSVYGRLIDLCQPTQKKYQIAVTKVLGKNMDAIIVDSEKTGRDCIQYIKEQRGEPETFLPLDYLEVKPTDEKLRELKGAKLVIDVIRYEPPHIKKALQYACGNALVCDNVEDARRIAFGGHQRHKTVALDGTLFQKSGVISGGASDLKAKARRWDEKAVDKLKEKKERLTEELKEQMKAKRKEAELRQVQSQAHGLQMRLKYSQSDLEQTKTRHLALNLQEKSKLESELANFGPRINDIKRIIQSREREMKDLKEKMNQVEDEVFEEFCREIGVRNIREFEEEKVKRQNEIAKKRLEFENQKTRLGIQLDFEKNQLKEDQDKVHMWEQTVKKDENEIEKLKKEEQRHMKIIDETMAQLQDLKNQHLAKKSEVNDKNHEMEEIRKKLGGANKEMTHLQKEVTAIETKLEQKRSDRHNLLQACKMQDIKLPLSKGTMDDISQEEGSSQGEDSVSGSQRISSIYAREALIEIDYGDLCEDLKDAQAEEEIKQEMNTLQQKLNEQQSVLQRIAAPNMKAMEKLESVRDKFQETSDEFEAARKRAKKAKQAFEQIKKERFDRFNACFESVATNIDEIYKALSRNSSAQAFLGPENPEEPYLDGINYNCVAPGKRFRPMDNLSGGEKTVAALALLFAIHSYKPAPFFVLDEIDAALDNTNIGKVANYIKEQSTCNFQAIVISLKEEFYTKAESLIGVYPEQGDCVISKVLTFDLTKYPDANPNPNEQ
B6: SPTB 1898-2083 (Homo sapiens, UniProt P11277); sequence looked up; chain QLVDTADKFRFFSMARDLLSWMESIIRQIETQERPRDVSSVELLMKYHQGINAEIETRSKNFSACLELGESLLQRQHQASEEIREKLQQVMSRRKEMNEKWEARWERLRMLLEVCQFSRDASVAEAWLIAQEPYLASGDFGHTVDSVEKLIKRHEAFEKSTASWAERFAALEKPTTLELKERQIAE
B7: VWF 1484-1677 (Homo sapiens, UniProt P04275); sequence looked up; chain GVSTLGPKRNSMVLDVAFVLEGSDKIGEADFNRSKEFMEEVIQRMDVGQDSIHVTVLQYSYMVTVEYPFSEAQSKGDILQRVREIRYQGGNRTNTGLALRYLSDHSFLVSQGDREQAPNLVYMVTGNPASDEIKRLPGDIQVVPIGVGPNANVQELERIGWPNAPILIQDFETLPREAPDLVLQRCCSGEGLQI
B8: Creb1 bZIP 270-341 C300S/C310S/C337S (Rattus norvegicus, UniProt P15337-1); sequence looked up; chain SSPALPTQPAEEAARKREVRLMKNREAARESRRKKKEYVKSLENRVAVLENQNKTLIEELKALKDLYSHKSD
B9: BBC3 (Homo sapiens, UniProt Q9BXH1); chain MARARQEGSSPEPVEGLARDGPRPFPLGRLVPSAVSCGLCEPGLAAAPAAPTLLPAAYLCAPTAPPAVTAALGGSRWPGGPRSRPRGPRPDGPQPSLSLAEQHLESPVPSAPGALAGGPTQAAPGVRGEEEQWAREIGAQLRRMADDLNAQYERRRQEEQQRHRPSPWRVLYNLIMGLLPLPRGHRAPEMEPN
B10: clpC N domain 1-150 (Bacillus subtilis, UniProt P37571); chain MMFGRFTERAQKVLALAQEEALRLGHNNIGTEHILLGLVREGEGIAAKALQALGLGSEKIQKEVESLIGRGQEMSQTIHYTPRAKKVIELSMDEARKLGHSYVGTEHILLGLIREGEGVAARVLNNLGVSLNKARQQVLQLLGSNETGSS
B11: LMNA 389-572 (Homo sapiens, UniProt P02545-2); sequence looked up; chain LSPSPTSQRSRGRASSHSSQTQGGGSVTKKRKLESTESRSSFSQHARTSGRVAVEEVDEEGKFVRLRNKSNEDQSMGNWQIKRQNGDDPLLTYRFPPKFTLKAGQVVTIWAAGAGATHSPPTDLVWKAQNTWGCGNSLRTALINSTGEEVAMRKLVRSVTVVEDDEDEDGDDLLHHHHVSGSRR
B12: EFR3A 721-791 (Homo sapiens, UniProt Q14156); chain SNTEEITFEALKKAIDTSGMEEQEKEKRRLVIEKFQKAPFEEIAAQCESKANLLHDRLAQILELTIRPPPS
B13: Notch1 221-526 (Mus musculus, UniProt Q01705); sequence looked up; chain PCSPSPCQNGGTCRPTGDTTHECACLPGFAGQNCEENVDDCPGNNCKNGGACVDGVNTYNCRCPPEWTGQYCTEDVDECQLMPNACQNGGTCHNTHGGYNCVCVNGWTGEDCSENIDDCASAACFQGATCHDRVASFYCECPHGRTGLLCHLNDACISNPCNEGSNCDTNPVNGKAICTCPSGYTGPACSQDVDECALGANPCEHAGKCLNTLGSFECQCLQGYTGPRCEIDVNECISNPCQNDATCLDQIGEFQCICMPGYEGVYCEINTDECASSPCLHNGHCMDKINEFQCQCPKGFNGHLCQ
B14: NHEJ1 1-224 (Homo sapiens, UniProt Q9H9Q4); sequence looked up; chain MEELEQGLLMQPWAWLQLAENSLLAKVFITKQGYALLVSDLQQVWHEQVDTSVVSQRAKELNKRLTAPPAAFLCHLDNLLRPLLKDAAHPSEATFSCDCVADALILRVRSELSGLPFYWNFHCMLASPSLVSQHLIRPLMGMSLALQCQVRELATLLHMKDLEIQDYQESGATLIRDRLKTEPFEENSFLEQFMIEKLPEACSIGDGKPFVMNLQDLYMAVTTQ
Chain of UniProt P36956 (whole entry, looked up): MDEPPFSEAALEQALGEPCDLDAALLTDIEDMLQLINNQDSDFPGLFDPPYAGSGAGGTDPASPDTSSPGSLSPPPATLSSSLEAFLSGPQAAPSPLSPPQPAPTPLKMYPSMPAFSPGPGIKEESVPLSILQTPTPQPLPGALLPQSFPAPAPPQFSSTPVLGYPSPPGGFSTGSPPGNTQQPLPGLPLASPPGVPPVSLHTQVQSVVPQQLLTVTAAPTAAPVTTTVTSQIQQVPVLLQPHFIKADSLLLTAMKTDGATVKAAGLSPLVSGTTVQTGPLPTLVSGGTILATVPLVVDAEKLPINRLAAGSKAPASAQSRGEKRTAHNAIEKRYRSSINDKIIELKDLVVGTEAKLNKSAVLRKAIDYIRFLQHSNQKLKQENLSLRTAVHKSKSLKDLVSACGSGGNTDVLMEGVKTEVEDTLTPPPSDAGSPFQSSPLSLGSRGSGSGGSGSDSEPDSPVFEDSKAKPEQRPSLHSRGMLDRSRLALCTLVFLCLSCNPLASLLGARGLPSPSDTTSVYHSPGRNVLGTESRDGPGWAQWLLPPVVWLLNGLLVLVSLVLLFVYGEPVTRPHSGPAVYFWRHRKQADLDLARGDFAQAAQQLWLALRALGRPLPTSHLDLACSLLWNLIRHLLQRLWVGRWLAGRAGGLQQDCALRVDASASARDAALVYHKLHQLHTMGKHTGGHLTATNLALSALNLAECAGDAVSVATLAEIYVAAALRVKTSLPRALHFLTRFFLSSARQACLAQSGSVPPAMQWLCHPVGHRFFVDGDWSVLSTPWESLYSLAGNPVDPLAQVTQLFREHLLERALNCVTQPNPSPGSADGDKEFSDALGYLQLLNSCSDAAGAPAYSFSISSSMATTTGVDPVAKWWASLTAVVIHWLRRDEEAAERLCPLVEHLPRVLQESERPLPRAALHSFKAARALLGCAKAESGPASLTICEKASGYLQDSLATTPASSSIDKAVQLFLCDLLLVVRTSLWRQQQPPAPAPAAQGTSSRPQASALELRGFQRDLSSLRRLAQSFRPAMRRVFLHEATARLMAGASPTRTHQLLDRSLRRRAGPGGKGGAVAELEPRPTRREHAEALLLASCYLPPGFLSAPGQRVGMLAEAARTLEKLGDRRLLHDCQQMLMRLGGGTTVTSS
Chain of UniProt P39900 (whole entry, unmodified, looked up): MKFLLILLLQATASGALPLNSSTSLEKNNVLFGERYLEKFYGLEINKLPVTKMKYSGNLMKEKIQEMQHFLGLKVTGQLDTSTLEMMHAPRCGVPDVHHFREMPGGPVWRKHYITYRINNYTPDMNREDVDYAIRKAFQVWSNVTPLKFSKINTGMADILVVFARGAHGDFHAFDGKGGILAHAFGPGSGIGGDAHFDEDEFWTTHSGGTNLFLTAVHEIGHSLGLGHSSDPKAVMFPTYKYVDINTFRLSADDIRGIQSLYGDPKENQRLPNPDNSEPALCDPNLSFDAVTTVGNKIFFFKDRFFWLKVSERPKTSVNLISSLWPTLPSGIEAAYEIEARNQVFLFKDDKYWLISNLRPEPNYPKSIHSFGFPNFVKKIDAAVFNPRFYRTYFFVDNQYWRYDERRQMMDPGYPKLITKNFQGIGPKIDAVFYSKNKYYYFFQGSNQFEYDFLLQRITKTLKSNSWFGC
Chain of UniProt Q06671 (whole entry, unmodified, looked up): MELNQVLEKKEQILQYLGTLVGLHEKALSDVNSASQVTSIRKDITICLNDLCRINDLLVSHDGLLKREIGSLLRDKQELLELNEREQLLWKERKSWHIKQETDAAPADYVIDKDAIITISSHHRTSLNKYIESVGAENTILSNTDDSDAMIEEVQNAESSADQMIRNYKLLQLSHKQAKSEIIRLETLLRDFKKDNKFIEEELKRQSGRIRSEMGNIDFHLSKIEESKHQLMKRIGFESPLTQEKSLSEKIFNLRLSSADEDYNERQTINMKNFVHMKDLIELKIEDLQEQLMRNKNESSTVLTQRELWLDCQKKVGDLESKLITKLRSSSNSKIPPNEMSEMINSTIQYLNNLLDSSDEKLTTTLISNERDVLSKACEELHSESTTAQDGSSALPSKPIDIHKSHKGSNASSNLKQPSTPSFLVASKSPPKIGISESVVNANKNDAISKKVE
Chain of UniProt P70345 (whole entry, looked up): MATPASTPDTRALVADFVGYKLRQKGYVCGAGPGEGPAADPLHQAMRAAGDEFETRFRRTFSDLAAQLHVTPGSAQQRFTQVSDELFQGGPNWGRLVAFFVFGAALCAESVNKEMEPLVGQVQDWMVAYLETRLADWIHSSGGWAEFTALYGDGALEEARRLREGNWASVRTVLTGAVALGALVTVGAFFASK
Chain of UniProt Q23985 (whole entry, looked up): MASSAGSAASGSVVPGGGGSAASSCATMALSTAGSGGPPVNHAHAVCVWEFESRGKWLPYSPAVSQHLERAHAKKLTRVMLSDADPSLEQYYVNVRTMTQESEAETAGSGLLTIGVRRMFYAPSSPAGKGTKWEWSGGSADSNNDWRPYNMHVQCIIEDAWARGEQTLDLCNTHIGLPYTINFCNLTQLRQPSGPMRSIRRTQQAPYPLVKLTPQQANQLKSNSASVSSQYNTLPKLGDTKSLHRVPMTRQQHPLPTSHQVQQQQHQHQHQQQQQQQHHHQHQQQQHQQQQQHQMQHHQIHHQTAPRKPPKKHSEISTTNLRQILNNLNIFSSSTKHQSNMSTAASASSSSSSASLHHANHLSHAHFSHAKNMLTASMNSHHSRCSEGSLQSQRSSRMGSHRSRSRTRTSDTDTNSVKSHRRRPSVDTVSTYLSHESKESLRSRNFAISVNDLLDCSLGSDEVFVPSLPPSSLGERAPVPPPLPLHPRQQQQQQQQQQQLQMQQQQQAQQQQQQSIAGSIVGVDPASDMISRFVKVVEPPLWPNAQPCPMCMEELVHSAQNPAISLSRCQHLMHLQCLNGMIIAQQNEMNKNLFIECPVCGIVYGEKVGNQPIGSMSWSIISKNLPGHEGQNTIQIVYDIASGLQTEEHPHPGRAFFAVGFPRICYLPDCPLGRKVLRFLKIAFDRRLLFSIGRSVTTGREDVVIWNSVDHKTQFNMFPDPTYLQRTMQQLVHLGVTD
Chain of UniProt Q13426 (whole entry, looked up): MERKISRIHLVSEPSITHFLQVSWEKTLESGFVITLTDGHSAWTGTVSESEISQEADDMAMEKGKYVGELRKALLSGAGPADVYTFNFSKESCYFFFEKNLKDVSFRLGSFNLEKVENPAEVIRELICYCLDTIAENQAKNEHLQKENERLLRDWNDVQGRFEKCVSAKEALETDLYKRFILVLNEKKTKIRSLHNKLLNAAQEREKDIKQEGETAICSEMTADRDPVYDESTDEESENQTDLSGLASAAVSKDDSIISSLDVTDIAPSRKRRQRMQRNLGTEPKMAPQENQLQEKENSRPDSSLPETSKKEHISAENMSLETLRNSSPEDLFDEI
Chain of UniProt O95619 (whole entry, looked up): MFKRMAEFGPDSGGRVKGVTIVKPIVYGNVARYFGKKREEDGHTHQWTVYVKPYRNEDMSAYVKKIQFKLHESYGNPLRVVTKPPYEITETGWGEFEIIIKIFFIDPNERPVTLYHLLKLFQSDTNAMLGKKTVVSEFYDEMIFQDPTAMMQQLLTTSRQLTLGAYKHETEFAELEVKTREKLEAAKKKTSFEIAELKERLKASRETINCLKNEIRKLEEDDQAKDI
Chain of UniProt O31597 (whole entry, looked up): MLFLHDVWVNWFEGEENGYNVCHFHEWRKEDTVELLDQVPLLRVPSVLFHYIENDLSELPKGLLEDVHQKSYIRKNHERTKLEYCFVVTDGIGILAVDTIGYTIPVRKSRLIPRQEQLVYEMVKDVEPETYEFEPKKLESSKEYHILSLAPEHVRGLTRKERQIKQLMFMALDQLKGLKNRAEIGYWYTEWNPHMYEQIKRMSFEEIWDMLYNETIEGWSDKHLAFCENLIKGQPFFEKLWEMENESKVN
Chain of UniProt Q9NR61 (whole entry, unmodified, looked up): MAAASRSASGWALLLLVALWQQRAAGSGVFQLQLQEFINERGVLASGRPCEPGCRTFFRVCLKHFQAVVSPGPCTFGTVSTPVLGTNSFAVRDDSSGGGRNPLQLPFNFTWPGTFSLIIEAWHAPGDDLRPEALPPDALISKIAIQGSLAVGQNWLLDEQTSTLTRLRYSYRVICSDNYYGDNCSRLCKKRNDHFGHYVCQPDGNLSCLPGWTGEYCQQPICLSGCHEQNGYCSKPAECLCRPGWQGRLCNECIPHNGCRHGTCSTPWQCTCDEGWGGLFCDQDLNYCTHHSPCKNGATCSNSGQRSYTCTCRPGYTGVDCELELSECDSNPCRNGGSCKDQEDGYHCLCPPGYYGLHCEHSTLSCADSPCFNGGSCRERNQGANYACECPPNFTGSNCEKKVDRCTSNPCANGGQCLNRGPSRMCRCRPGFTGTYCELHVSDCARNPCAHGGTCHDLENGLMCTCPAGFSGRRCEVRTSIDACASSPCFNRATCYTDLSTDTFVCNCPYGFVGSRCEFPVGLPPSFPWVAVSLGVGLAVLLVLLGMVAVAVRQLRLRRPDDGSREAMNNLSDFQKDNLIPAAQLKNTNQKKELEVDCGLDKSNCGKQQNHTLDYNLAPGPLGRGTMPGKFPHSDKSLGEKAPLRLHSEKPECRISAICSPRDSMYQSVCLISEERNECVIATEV

Substance	target or system	assay	test system	setting	how to read	measurement	value
B1 (TNFSF4 51-183)	TNFRSF4 29-170 V53A (Homo sapiens, UniProt P43489)	SPR	–	–	–	Kd	1.8 µM
B2 (SMARCD1 SWIFT domain)	SPI1, NHS Red dye labeled (Homo sapiens, UniProt P17947)	MST	–	–	–	Kd	6.78 ± 2.95 µM
B3 (human ERp44)	PP6C (human)	co-immunoprecipitation, IP-MS	CYB5R4 knockout cells	concentration not given	reference: CYB5R4 knockout over parental	log2 fold change	-2.31
ERBB2 (Homo sapiens, UniProt P04626)	trastuzumab IgG, PBS-stressed 21 d, Asn deamidation, HC Asn55, LC Asn30, Fc	SPR	–	–	–	Kd	0.0039 µM
B4	IL18BP (Homo sapiens, UniProt O95998)	SPR	–	–	–	Kd	2e-05 µM
Notch ankyrin domain K183A/R193A/E194A/R107A (Drosophila)	dx (Drosophila melanogaster, UniProt Q23985)	AUC	–	–	–	Kd	5.13 µM
KLLMIIHDRREFAKFEKEKMNAKWDTQENPIYKSAINNFKNPNYGRKAGL (ITGB1 752-801 P786A (Homo sapiens, UniProt P05556-5); sequence looked up)	Tln2 312-408 (Mus musculus, UniProt Q71LX4)	NMR titration	–	–	–	Kd	176 µM
TIMP2 N-terminal domain	MMP12 catalytic domain 106-263 A252Q/T215V/A173P/A167E/V161I/M156E/Y132K/Y113D (Homo sapiens, UniProt P39900)	BLI	–	–	–	Kd	0.29 µM
B5 (human SMC1A)	PP6C (human)	co-immunoprecipitation, IP-MS	CYB5R4 knockout cells	concentration not given	reference: CYB5R4 knockout over parental	log2 fold change	-1.5
DHEYVLTESFLDSGAFPNHDVIDHNKMLNSNYNGNGILNKGGVLGLVKEYYKKSDVGR (ATG9 940-997 (Saccharomyces cerevisiae, UniProt Q12142); sequence looked up)	ATG23 A34E (UniProt Q06671)	BLI	–	–	–	Kd	0.76 µM
B6 (SPTB 1898-2083)	SPTAN1 1-359 (Homo sapiens, UniProt Q13813)	ITC	–	pH 7.4, NaCl 150 mM	–	Kd	0.0069 µM
GUCAAUUUU (ssRNA)	U2AF2	sequencing of bound RNA	RNA	motif only	–	Kd	9.31 µM
B7 (VWF 1484-1677)	VWF A1 domain	MST	–	–	–	Kd	0.0628 µM
Polymyxin B	–	untargeted LC-MS metabolomics, measured: NADH	Sprague-Dawley rat, right cerebral cortex	intracerebroventricular, 0.75 mg/kg, 1 h	reference: NaCl control	log2 fold change	-8.6
B8	Creb1 bZIP-LZ 270-341 C300S (Rattus norvegicus, UniProt P15337-1)	smFRET	–	–	–	Kd	0.033 µM
Histone H3.1 fragment (Homo sapiens)	YEATS4 19-159 (Homo sapiens, UniProt O95619)	ITC	–	with: histone H3 peptide	–	Kd	> 1000 µM
WASHC2A (Homo sapiens, UniProt Q641Q2)	SNX27 (Homo sapiens, UniProt Q96L92-3)	ITC	–	–	–	Kd	5.7 ± 1.94 µM
B9 (BBC3)	Bcl2l2 (Mus musculus, UniProt P70345)	FRET or BRET	–	not purified	–	Kd	5 µM
DHEYVLTESFLDSGAFPNHDVIDHNKMLNSNYNGNGILNKGGVLGLVKEYYKKSDVGR (ATG9 940-997 (Saccharomyces cerevisiae, UniProt Q12142); sequence looked up)	ATG23 full-length, dimer (Saccharomyces cerevisiae, UniProt Q06671)	BLI	–	–	–	Kd	0.37 µM
B10 (clpC N domain 1-150)	mdfA (Bacillus subtilis, UniProt O31597)	ITC	–	–	–	Kd	3.79 µM
APGVPRIEEEKSEEE (CRYAB residues 131-145 (Homo sapiens, UniProt P16220))	KIX CBP L628A (Mus musculus)	fluorescence anisotropy	peptide	–	–	Kd	0.7 µM
B11 (LMNA 389-572)	SREBF1 227-487 (Homo sapiens, UniProt P36956)	ITC	–	–	–	Kd	0.063 µM
B12 (EFR3A 721-791)	TTC7B/FAM126B 1-308	BLI	–	–	–	Kd	0.000298 µM
CAUUUCAUU (ssRNA)	U2AF2	sequencing of bound RNA	RNA	motif only	–	Kd	3.76 µM
PARSSSYHLALQ (PHLDB1 GBR (Homo sapiens); phosphoserine)	DLG4 GK domain (Rattus norvegicus)	ITC	peptide	–	–	Kd	0.56 µM
B13 (Notch1 221-526)	DLL4 27-400 G28S/F107L/I143F/H194Y/L206P/N257P/T271L/F280Y/S301R/Q305P (Homo sapiens, UniProt Q9NR61)	SPR	–	–	–	Kd	0.025 µM
DTTPTVAGQFEDADVDH (CLNS1A residues 221-237; N-terminal acetyl)	PRMT5/WDR77 full length, hetero-octamer (Homo sapiens)	SPR	peptide	–	–	Kd	2.5 µM
B14 (NHEJ1 1-224)	XRCC4 (Homo sapiens, UniProt Q13426)	BLI	–	–	–	Kd	0.17 µM
